Experimental data from different studies.
Parts stem from different laboratories: compare values within a part only. Changes are numbered by the printed parent chain.

Set 1
Target: Fragile X messenger ribonucleoprotein 1, C-terminal low-complexity region (Fmr1, Mus musculus, UniProt P35922)
Technique: RNA Bind-n-Seq
Molecule type: RNA
Medium: in vitro
Tested at: 200 nM
Setting: whole 134-nt RNA, ends assumed
Added: 150 mM LiCl
Relative to: input library
Reading: higher = stronger binding
Measurement: log2 enrichment
Library: 7-deaza-guanosine replaces G
Constant ends, left off below: GGGAGUUCUACAGUCCGACGAUC … UGGAAUUCUCGGGUGUCAAGG
UGGCCCUUGUGGCAUGCGGGGAGGAAGAGGUGGCCUCAUGGAUCGUGGUGGUCCCGGUGGAAUGUUCAGAGGUGGCCGUGGUGGAGACAG: -0.104
ACCAUGCAGGUGGGCAUCUUUGGGAAGUGGGGCAAGGGGGGGAUAGGGAGGGGGGUAACACUUUGGGAACAGGUGGUAAAAGGUCGUUUC: 1.19
UGGGAGGUGGAUUUUAUUUAUUUUUUUAGCUCAUUUCCAGGGGUGGGAAUUUUUUUUUAAUAUGUGUCAUGAAUAAAGUUGUUUUUGAAA: -0.0662
UCAAGUCCUGUGCUACACAUCGUAUGUACCGAAUCGGUUUGGUUUGGUUUUUGGAAAGUAUUAUGUUACGCCGUUCGGAUCUGCACUUCC: -1
UCAUUCUAUACAGCCUUUUGUUUCAUUAGGAUCAGGCAGCUAGAGACAUGAAGAGGCUUGAAGAAAAGGACAAGGAAAGAAAAAACGUAA: -2.43
UAACUUUAGAGGAGGAUCUGAUGGAUAUGGCAGUGGACGUGGAUUUGGGGAUGGCUAUAAUGGGUAUGGAGGAGGACCUGGAGGUAGCAA: -0.469
UCAAGUCCUGUGCUACACAUCGUAUGUACCGAAUCGGGUUGGGUUGGGGUUGGGAAAGUAUUAUGUUACGCCGUUCGGAUCUGCACUUCC: -1.08
CCUGUGCUACACAUCGUAUGUACCGAAUCGGCCCCCCCGGCCCCCCCGGGCCCCCCCGGGAAAGUAUUAUGUUACGCCGUUCGGAUCUGC: 1.24

Set 2
Target: RNA binding protein fox-1 homolog 2, RRM domain, GST-SBP tag (RBFOX2, Homo sapiens, UniProt O43251-10, residues 100-194)
Technique: RNA Bind-n-Seq
Molecule type: RNA
Medium: in vitro
Tested at: 365 nM
Setting: natural RNA segment, single round, ends assumed
Relative to: no-protein control
Reading: higher = stronger binding
Measurement: RBNS enrichment (R)
Constant ends, left off below: GGGAGUUCUACAGUCCGACGAUC … UGGAAUUCUCGGGUGCCAA
Target sequence (chain): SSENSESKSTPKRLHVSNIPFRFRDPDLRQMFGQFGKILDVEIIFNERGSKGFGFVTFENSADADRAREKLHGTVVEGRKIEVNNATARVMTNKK
CUCAUUCAGCACCAGCGUUCCCACACAGGCGAGAGGCCGUACCGCUGCGCUGUGUGUGGCAAGGGCUUCUGUCGCUCCUCCACGCUGCUACAGCACCAUCGCGUGCAUAG: 0.314
UGGUAGCCAUCUUAGACACUGACAUUUGGCUUUGUCGUCAAUUUCAUCACCCUCCUUGAGGUUACUGUGCAGUUUCAACCAGCAUUUUAUCCUAGUGAGGUCAUUAUCAG: 0.257
UUAACACUGCUGUGGUAAAUCCACGGUCCAAGCCCAGGCGGGCUGAGAAGAGAGAUGGCCUGAGCAGGAACGGAGCUCUCCUCAGUUGGAAGCAAUGUGGGGCGCUGCGA: 0.411
UGAUUCAGCAGGCCCUUCCCAUUCUGCCCCAGAGUGGGUCUUGGACCAGGGCAAGUGCAUCUUUGCCUCAACUCCAGGAUUUAGGCCUUAACACACUGGCCAUUCUUAUG: 0.653
UGGGAUACCUCCAGGUUCCAGUAAAAUUCUUCUGACCGAAACCAAUGUGGGUGUUAGAAAAAUUACCAUAUAGCUUAAUAUGUUUAUUAGUUCUCUUUGGAAAAAAACUA: 0.298
UCCACUGCUCUUCACUGGGUUCACUUCCAAGGAGACUAAUGGCUCUAUUGUAAAAAUUGCUCUUAAUUCUUGAAGAGGCUACUGAGAAGCAGUGGGGUAGAUCUCAUGAG: 0.28
GUGUGUGUGAGAGUGAGUGAGUGUGCGUGCGUGCGUGCUUGUAUGUAUGUUUGUAUAUGUAGGACAAUAAGUUCCUUCUGACACAAGGGAGACACGAGAAGGAUAGCCUG: 12.3
CACUCCCCCCUCCAUUCCCACCCCUCAUACCUACACCCAAGGUUGUCAGCUUUGGAUUGCUGGGGCCAGGCCCCAUGGAGGGUAUACUGAGGGGUCUAUAGGUUUGUGAU: 0.283

Set 3
Target: Interferon regulatory factor 7, full length, phosphomimetic (IRF7, Homo sapiens, UniProt Q92985, residues 1-503, S471D/S472D/S475D/S476D/S477D/S483D/S484D/S487D)
UniProt Q92985, sequence (whole entry, unmodified, looked up): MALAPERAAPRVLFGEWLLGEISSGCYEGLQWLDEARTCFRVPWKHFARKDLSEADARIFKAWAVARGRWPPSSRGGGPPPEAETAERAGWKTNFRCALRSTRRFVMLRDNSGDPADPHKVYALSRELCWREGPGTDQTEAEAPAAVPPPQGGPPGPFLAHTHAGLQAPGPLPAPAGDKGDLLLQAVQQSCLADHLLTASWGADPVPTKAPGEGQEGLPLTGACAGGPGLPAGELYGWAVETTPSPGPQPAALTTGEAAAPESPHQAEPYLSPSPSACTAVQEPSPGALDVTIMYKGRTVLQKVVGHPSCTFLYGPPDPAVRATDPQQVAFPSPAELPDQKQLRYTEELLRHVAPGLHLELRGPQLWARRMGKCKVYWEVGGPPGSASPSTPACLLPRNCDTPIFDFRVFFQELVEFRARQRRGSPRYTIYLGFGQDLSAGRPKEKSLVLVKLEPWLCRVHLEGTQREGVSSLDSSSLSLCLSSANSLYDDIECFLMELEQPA
Technique: protein-binding microarray
Molecule type: double-stranded DNA, one strand shown
Medium: in vitro
Tested at: 2200 nM top
Setting: 60-bp whole probe
Added: salmon DNA 0.4 mg/ml
Relative to: random background probes
Reading: higher = stronger binding
Measurement: fitted relative affinity
Constant ends, left off below: GCCTAGCAC … GTCTTGATTCGCTTGACGCTGCTG
TTAGGTTTCGTTATCCTTTAGTGCTAG: 7.34 z-score
AGGGTGTTCTTTTCTGTTGTCGTGCTA: 1.45 z-score
TCAATGTTCCTTATTTAACTGTGCTAG: 1.16 z-score
TTAGGACTGAGTCTCGGTTAGTGCTAG: 0.23 z-score
TTAGGTTTCGGAGTGGGTTAGTGCTAG: 2.54 z-score
TTTTTTCTACTTCTGTTTTTGTGCTAG: 4.8 z-score
GTGTTTTGCCCTATTTAAGAGTGCTAG: 2.22 z-score
TTTTTTTTTTTTTTTTTTACGTGCTAG: 1.85 z-score
GACGATTTCAGTGCCGAGACGTGCTAG: 0.422 z-score
TTAGGTATCTGACTGGGTTAGTGCTAG: 0.0247 z-score
CCTTGTCCCCTCAGGTATGGGTGCTAG: 0.0166 z-score
GTAGGTCTCCTTATCCTTTAGTGCTAG: 0.914 z-score
CCCTTAAAAGACGTGCCAATGTGCTAG: -0.279 z-score
GACGAACTGAGACTGGACACGTGCTAG: -0.0794 z-score
TCAATCTTATGATATATAACTGTGCTA: 0.00873 z-score
TTAGGACTGCTTATCCTCTAGTGCTAG: 0.461 z-score

Set 4
Target: CEBPB, bZIP domain (human)
Technique: DHFR protein complementation
Medium: yeast
Setting: single substitutions, most at no-binding floor
Relative to: wild-type JUN-FOS pair
Reading: higher = stronger binding
Measurement: binding fitness
Starting sequence: JUN, bZIP domain (human); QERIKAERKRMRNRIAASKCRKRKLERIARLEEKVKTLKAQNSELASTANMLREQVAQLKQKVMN; partner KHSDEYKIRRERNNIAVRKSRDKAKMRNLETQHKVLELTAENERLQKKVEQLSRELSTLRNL
A49R: -1.34 natural log
V35K: -1.46 natural log
E32V: -1.4 natural log
A57K: -1.36 natural log
T37R: -1.38 natural log
A49G: -1.53 natural log
Q41R: -1.31 natural log
L31C: -1.47 natural log
T37W: -1.24 natural log
E54P: -1.47 natural log
A46H: -1.2 natural log

For quick reference, copied from above (set 3):
CCCTTAAAAGACGTGCCAATGTGCTAG: -0.279 z-score
CCTTGTCCCCTCAGGTATGGGTGCTAG: 0.0166 z-score
TTTTTTTTTTTTTTTTTTACGTGCTAG: 1.85 z-score
AGGGTGTTCTTTTCTGTTGTCGTGCTA: 1.45 z-score
GTGTTTTGCCCTATTTAAGAGTGCTAG: 2.22 z-score
